Assay results collected from several papers.
± gives the spread as reported.
CNR1: Cannabinoid receptor 1 (CNR1, Homo sapiens, UniProt P21554)
Chain of UniProt P21554 (whole entry, unmodified, looked up): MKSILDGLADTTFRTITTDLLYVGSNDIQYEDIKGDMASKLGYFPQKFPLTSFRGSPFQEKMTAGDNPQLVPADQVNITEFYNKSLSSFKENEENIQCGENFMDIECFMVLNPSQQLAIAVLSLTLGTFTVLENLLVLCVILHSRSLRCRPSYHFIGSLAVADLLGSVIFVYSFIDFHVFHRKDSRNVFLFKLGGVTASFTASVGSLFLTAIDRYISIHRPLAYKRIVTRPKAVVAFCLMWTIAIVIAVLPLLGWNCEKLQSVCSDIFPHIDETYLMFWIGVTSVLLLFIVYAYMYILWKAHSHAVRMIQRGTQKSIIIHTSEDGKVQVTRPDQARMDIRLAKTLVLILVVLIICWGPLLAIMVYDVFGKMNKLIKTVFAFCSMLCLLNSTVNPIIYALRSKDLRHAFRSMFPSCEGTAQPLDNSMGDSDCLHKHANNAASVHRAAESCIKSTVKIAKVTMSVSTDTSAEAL

`COC(=O)[C@@H](NC(=O)c1nn(Cc2ccc(F)cc2)c2cc(OCCCCNC(=N)N)ccc12)C(C)(C)C` gave an Emax of under 20% (CNR1; β-arrestin-1 recruitment, agonist; relative to: FUB).
The Emax of `CCCCCn1ccc(C(=O)NC(C)(C)c2ccc(CNC(C)=O)cc2)n1` is reported as 22% (CNR1; calcium signal, agonist, fluorescence).
The Emax of `CCOC(=O)C(CC)(CC)NC(=O)c1ccc(C2CC2)c(Cc2ccc(F)cc2)n1` is reported as 99% (CNR1; cAMP, agonist).
`CCCCCn1cc(C(=O)c2cccc3c2CC(C)(C)C3)c2ccccc21` has an Emax of 149 ± 3.4% (CNR1 (Homo sapiens, UniProt P21554, F174A); Gαi1 engagement, agonist, BRET; relative to: reference agonist at wild-type CB1).
With `CCCCCn1ccc(C(=O)NC(C)(C)c2ccc(N)cc2)n1` the Emax was 61% (CNR1; calcium signal, agonist, fluorescence).
For `Cc1ccc2c(C(C[N+](=O)[O-])c3cccs3)c(-c3ccccc3)[nH]c2c1` (centres unmarked), the Emax was 106 ± 3.72% (CNR1 (Homo sapiens, UniProt P21554, I245M); receptor activation, agonist).
For `CCCCCn1ccc(C(=O)N[C@H](C(N)=O)C(C)C)n1`, the Emax was 35% (CNR1; calcium signal, agonist, fluorescence).
The Emax of `COc1ccccc1C(C[N+](=O)[O-])c1c(-c2ccccc2)[nH]c2ccccc12` (centres unmarked) is reported as 95.6 ± 3.78% (CNR1 (Homo sapiens, UniProt P21554, Y397F); Gαi1-γ2 dissociation, BRET).
With `CCCCCn1cc(C(=O)c2cccc3ccccc23)c2ccccc21` the Emax was 103 ± 2% (CNR1; cAMP inhibition, agonist, CAMYEL BRET biosensor; together with: forskolin 10 µM; relative to: reference agonist at wild type).
The Emax of `COC(=O)[C@@H](NC(=O)c1nn(Cc2ccc(F)cc2)c2cc(OCCCCNC(N)=O)ccc12)C(C)(C)C` is reported as 200% (CNR1; β-arrestin recruitment, agonist, BRET).
The Emax of `CCCCCn1cc(C(=O)c2ccc3c(c2)CC(C)(C)C3)c2ccccc21` is reported as 38 ± 6.5% (CNR1; Gαi1 activation, agonist, BRET; relative to: reference agonist).
`O=[N+]([O-])CC(c1ccco1)c1c(-c2ccccc2)[nH]c2ccccc12` (centres unmarked) gave an Emax of 100 ± 6.15% (CNR1; Gαi1-γ2 dissociation, BRET).
The Emax of `CCCCCn1ccc(C(=O)NC(C)(C)c2ccc(C)cc2)n1` is reported as 46% (CNR1; calcium signal, agonist, fluorescence).
With `CCCCCn1cc(C(=O)c2ccc3ccccc3c2)c2ccccc21` the Emax was 112 ± 4% (CNR1 (Homo sapiens, UniProt P21554, I267L/L193I/L359V); cAMP inhibition, agonist, CAMYEL BRET biosensor; together with: forskolin 10 µM; relative to: reference agonist at wild type).

A few entries again:
The Emax of `CCOC(=O)C(CC)(CC)NC(=O)c1ccc(C2CC2)c(Cc2ccc(F)cc2)n1` is reported as 99% (CNR1; cAMP, agonist).
`CCCCCn1cc(C(=O)c2cccc3c2CC(C)(C)C3)c2ccccc21` has an Emax of 149 ± 3.4% (CNR1 (Homo sapiens, UniProt P21554, F174A); Gαi1 engagement, agonist, BRET; relative to: reference agonist at wild-type CB1).
